Measured values of several laboratories.
Every numbered part comes from another study and shows a few of its results, in no order.

Set 1 — method: RNA Bind-n-Seq; form: RNA; matrix: in vitro; tested at: 365 nM; baseline: no-protein control; reading: higher = stronger binding
Target: RNA binding protein fox-1 homolog 2, RRM domain, GST-SBP tag (RBFOX2, Homo sapiens, UniProt O43251-10, residues 100-194)
Setting: natural RNA segment, single round, ends assumed
For `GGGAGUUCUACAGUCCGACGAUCCUUGUGGGGAGGGCUCAGGAAUGAUUUAACCCCCCCUAAGAUUAUGGUUGGGUCAGUACAGAUUCCAGGUGACUUCCUUUUUCCAUGUGCCGGGAUGGGAGGGCUGUGUUUGGAAUUCUCGGGUGCCAA`, “RBNS enrichment (R)” read 0.774.
`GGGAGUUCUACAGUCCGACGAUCUACAAGUAGGGGUUGUGGGUGACCAGUUGCACUUGGCCUCUGGAUUGUGGGAAUUAAGGAAGUGACUCAUCCUCUUGAAGAUGCUGAAACAGGAGAGAAAGGGGAUGUAUUGGAAUUCUCGGGUGCCAA` — result for “RBNS enrichment (R)”: 0.63.
For `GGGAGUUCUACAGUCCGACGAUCUGGUGCCACAAAAGUAUUUCUGCUUUUUAGCCCUUUCUCUGCACCUCAACAAGAGAUAAAAAAAAACUGUUGCUCAUACCCGUAUCUUACUGGGUUUGUUUUUAAUAUUAUGGAAUUCUCGGGUGCCAA`, “RBNS enrichment (R)” read 0.438.
For `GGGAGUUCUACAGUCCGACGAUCUGCUGAAAAAUGUGUUCUAAUGCAACACAAAAACAUGAAGUGACUGCCCAGAGGUAGAGUUAGUGUUUAGGUGGAAAGGGAGAUGACAGCUUUCCAAAGAAGGACCUAAAUGGAAUUCUCGGGUGCCAA`, “RBNS enrichment (R)” read 0.972.
Under “RBNS enrichment (R)”, `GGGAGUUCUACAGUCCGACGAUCUACUUUGAGCCGGAUCUGGCCUGUGACUAGAAGACCAACCCCUACGAGGAAAUGUGGAGCUCAACGUGUGCACUGCUUGUAUGCGUGUGGAUGUGUGGAUCCCACCUGCCUGGAAUUCUCGGGUGCCAA` is recorded as 0.612.
`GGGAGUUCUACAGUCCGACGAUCAAGGCUCUCACACUUCUUCUGUGAAGCGUGGGCUUCAUUUCCAUGGCCCUGAGGCCCAGAGAGACAGCUGUCCACUUACCGGCAGGGUAGUCAUAGACAUAGAUACUGCAUGGAAUUCUCGGGUGCCAA` — result for “RBNS enrichment (R)”: 0.645.
`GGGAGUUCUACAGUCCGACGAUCUCUUCCUUGGAGGGGGGAGCCAUAUUUUAUUCUUUUAUUGUCAGUAUCUGUAUCUCUCUCUCUUUUUGGAGGUGCUUAAGCAGAAGCAUUAACUUCUCUGGAAAGGGGGGUGGAAUUCUCGGGUGCCAA` — result for “RBNS enrichment (R)”: 0.413.
`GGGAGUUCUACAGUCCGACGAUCUUUUUUUCUUUUUUAGAAAACAGGGAGUUGAAGUCCAACCUAUUUAAAAACCCCACCAUUUGGAGAAUUACAAGGGUUUUGUCCUGAAUUGUAGUGUUGGCAAGCCCAAGUGGAAUUCUCGGGUGCCAA`: “RBNS enrichment (R)” 0.466.

Set 2 — method: protein binding microarray; form: double-stranded DNA, one strand shown; matrix: in vitro; tested at: not given; baseline: not given; reading: higher = stronger binding
Target: Histone acetyltransferase KAT6A, winged helix 1, GST fusion (KAT6A, Homo sapiens, UniProt Q92794, residues 1-85)
Setting: 8-mer, flanks averaged, mean of 2 arrays, mostly near background
Residues (chain): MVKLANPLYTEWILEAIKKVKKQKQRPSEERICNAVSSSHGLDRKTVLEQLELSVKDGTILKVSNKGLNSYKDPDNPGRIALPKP
The E-score of `AAAGGGAA` is reported as -0.108.
For `CCGCGCAA`, the E-score was 0.393.
`ATGGGCAC` has an E-score of -0.0925.
For `CAGTTTCG`, the E-score was -0.0673.
With `ACGACGGG` the E-score was 0.268.
`AACAGACC` has an E-score of -0.0246.
`ACTCCGGG` gave an E-score of 0.111.
With `GCCTCCAA` the E-score was -0.074.
The E-score of `CCCGTACG` is reported as 0.441.
The E-score of `GCGCGTAA` is reported as 0.388.
`AACAGTCA` gave an E-score of -0.1.
`CCAATATC` gave an E-score of -0.198.
With `ACGAGTCC` the E-score was 0.0138.
The E-score of `AGTGGGGG` is reported as -0.183.
For `CTCTGGCA`, the E-score was -0.237.
`AGTATAGC` has an E-score of 0.0234.
The E-score of `GACAAACA` is reported as -0.127.
`CTCATATC` gave an E-score of -0.176.
For `AAGCTGCA`, the E-score was -0.0027.
The E-score of `CACCCCGG` is reported as 0.174.
`CGACGGGA` gave an E-score of 0.442.
For `GACTGAAA`, the E-score was -0.171.
`GTGGCCAA` has an E-score of -0.227.
`AGGAGCGG` gave an E-score of 0.283.
`GGCATCGA` has an E-score of -0.012.

Set 3 — method: universal PBM; form: double-stranded DNA, one strand shown; matrix: in vitro; tested at: not given; reading: higher = stronger binding
Target: Sal-like protein 4, full length isoform B (SALL4, Homo sapiens, UniProt Q9UJQ4-2, residues 1-616)
Setting: 8-mer, flanks averaged, mean of replicates
Target sequence (chain): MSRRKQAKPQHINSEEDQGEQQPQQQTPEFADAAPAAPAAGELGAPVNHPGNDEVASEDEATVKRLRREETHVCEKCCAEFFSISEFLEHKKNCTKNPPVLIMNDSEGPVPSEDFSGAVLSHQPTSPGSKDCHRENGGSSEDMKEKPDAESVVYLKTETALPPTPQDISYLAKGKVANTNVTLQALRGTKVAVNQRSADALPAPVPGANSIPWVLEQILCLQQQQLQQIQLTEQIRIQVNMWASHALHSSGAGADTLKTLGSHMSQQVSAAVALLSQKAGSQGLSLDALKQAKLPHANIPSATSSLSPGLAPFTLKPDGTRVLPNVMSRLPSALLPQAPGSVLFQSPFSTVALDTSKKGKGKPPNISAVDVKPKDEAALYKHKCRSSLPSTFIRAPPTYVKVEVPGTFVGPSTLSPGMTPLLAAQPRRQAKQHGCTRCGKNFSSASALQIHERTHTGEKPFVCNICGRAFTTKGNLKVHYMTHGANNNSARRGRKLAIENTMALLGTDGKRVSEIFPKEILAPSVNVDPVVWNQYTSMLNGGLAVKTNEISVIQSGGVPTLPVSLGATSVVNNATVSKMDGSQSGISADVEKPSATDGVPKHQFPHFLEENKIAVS
`AGTGAACC` has an E-score of -0.171.
`GAAGAATA` has an E-score of 0.224.
For `GAAACTAA`, the E-score was 0.0739.
With `CACGGGCA` the E-score was -0.213.
With `CGACACCA` the E-score was -0.144.
`AAGAAGCT` has an E-score of 0.162.
The E-score of `AAGACCAA` is reported as 0.00188.
The E-score of `AATCTGGT` is reported as -0.00893.
`TGCCACCA` has an E-score of -0.161.
With `AGTAGGTG` the E-score was 0.0888.
For `AAGGAAAC`, the E-score was -0.0789.
`ACGATACG` gave an E-score of 0.111.
`CGGGGGGC` has an E-score of -0.272.
`CTTTGTGA` has an E-score of 0.0114.
With `ACGTGGAT` the E-score was 0.0575.
The E-score of `CGCGAGTA` is reported as -0.0195.
With `CTTCGGCC` the E-score was -0.0838.
`TCCGGTCA` has an E-score of -0.318.
`ATTGAGTG` has an E-score of 0.082.
With `ACACTCCA` the E-score was -0.00284.
With `CTCATGTA` the E-score was 0.222.
With `AGGAATTC` the E-score was -0.113.
`CTGGTTAC` gave an E-score of -0.182.
The E-score of `CCGTCGAA` is reported as -0.157.
With `ACGCAAGA` the E-score was -0.0241.

Set 4 — method: RNA Bind-n-Seq; form: RNA; matrix: in vitro; tested at: 200 nM; setting: whole 134-nt RNA, ends assumed; with: 150 mM KCl; baseline: input library; reading: higher = stronger binding
Target: Ras GTPase-activating protein-binding protein 1, full length (G3BP1, Homo sapiens, UniProt Q13283)
UniProt Q13283, sequence (whole entry, looked up): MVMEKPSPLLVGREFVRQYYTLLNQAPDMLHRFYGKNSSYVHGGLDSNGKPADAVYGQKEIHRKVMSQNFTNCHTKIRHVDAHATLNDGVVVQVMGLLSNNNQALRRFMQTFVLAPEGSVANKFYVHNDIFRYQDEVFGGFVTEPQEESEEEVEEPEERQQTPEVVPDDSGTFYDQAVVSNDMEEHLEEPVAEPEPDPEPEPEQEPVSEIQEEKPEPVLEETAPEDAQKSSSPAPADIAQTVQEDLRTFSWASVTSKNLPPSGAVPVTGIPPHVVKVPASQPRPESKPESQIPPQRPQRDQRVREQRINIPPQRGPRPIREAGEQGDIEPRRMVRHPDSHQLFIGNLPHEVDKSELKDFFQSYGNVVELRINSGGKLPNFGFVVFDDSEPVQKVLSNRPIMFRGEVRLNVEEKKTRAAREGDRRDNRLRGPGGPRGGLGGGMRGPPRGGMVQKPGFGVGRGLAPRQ
`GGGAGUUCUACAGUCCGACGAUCAAGUCCUGUGCUACACAUCGUAUGUACCGAAUCGGGGAAAGGGGUUUGGGGUGGGGAAAGUAUUAUGUUACGCCGUUCGGAUCUGCACUUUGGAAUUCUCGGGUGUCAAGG` has a log2 enrichment of 0.983.
`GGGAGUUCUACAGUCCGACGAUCCUGUGCUACACAUCGUAUGUACCGAAUCGGGGAAAAAAAGGGAAAAAAAGGGAAAAAAAGGAAAGUAUUAUGUUACGCCGUUCGGAUCUGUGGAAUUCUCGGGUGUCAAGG` gave a log2 enrichment of -0.664.
The log2 enrichment of `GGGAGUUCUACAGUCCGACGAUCGUCCUGUGCUACACAUCGUAUGUACCGAAUCGGGAAAAAGGAAAAAGGGAAAAAGGGGAAAGUAUUAUGUUACGCCGUUCGGAUCUGCACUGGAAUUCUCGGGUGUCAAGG` is reported as -0.533.
For `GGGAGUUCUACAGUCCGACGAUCUAACUUUAGAGGAGGAUCUGAUGGAUAUGGCAGUGGACGUGGAUUUGGGGAUGGCUAUAAUAGGUAUGGAGGAGGACCUGGAGGUGGCAAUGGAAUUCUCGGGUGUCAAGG`, the log2 enrichment was 0.311.
`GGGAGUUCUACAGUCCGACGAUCCCUGUGCUACACAUCGUAUGUACCGAAUCGGUUUUUUUGGGUUUUUUUGGGUUUUUUUGGGAAAGUAUUAUGUUACGCCGUUCGGAUCUGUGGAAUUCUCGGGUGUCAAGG` gave a log2 enrichment of -1.04.
The log2 enrichment of `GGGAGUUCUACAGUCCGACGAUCUGGGAGGUGGAUUUUGUUUAUUUUUUUAGCUCAUAUCCAGGGGUGGGAAUUUUUUUUUAAUAUGUGUCAUGAAUAAAGUUGUUUUUGAAAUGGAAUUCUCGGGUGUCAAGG` is reported as 0.152.
With `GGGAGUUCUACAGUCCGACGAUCUGUGCUACACAUCGUAUGUACCGAAUCGGGGAAAAAAAGGGGUUUUUGGGGUUUUUUUGGGGAAAGUAUUAUGUUACGCCGUUCGGAUCUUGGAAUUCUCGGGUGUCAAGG` the log2 enrichment was -0.296.
With `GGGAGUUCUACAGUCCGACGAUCGCAGGAAGUAAAAACAAAUGGAAAUGCUUCGGAUAGUGGCAGGGGUAGGGGUUGCUAAGGAAAGGGUGGGAUGGGAGUGGGUAAAGAGUUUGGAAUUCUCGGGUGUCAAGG` the log2 enrichment was 0.887.
`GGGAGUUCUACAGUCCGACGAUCCAAGUCCUGUGCUACACAUCGUAUGUACCGAAUCGGGGUUGGGGUUGGGUUGGGGAAAGUAUUAUGUUACGCCGUUCGGAUCUGCACUUCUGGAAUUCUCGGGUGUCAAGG` gave a log2 enrichment of 1.04.
